Published values collected from several papers.
Each numbered part is a random draw from the data of one study; scales do not carry over between parts.

Study 1
Target: RING finger protein unkempt homolog, zinc fingers 1-6, GST-SBP tag (UNK, Homo sapiens, UniProt Q9C0B0, residues 30-357)
Technique: RNA Bind-n-Seq
Form: RNA
Sample: in vitro
Concentration: not given
Setting: RNA with constant flanks, human and mouse sites, ends assumed
Reference: input RNA pool
Direction: higher = stronger binding
Constant ends, left off below: GGGAGUUCUACAGUCCGACGAUC … CAACAGAGGAUUGAGCAUCA
Residues (chain): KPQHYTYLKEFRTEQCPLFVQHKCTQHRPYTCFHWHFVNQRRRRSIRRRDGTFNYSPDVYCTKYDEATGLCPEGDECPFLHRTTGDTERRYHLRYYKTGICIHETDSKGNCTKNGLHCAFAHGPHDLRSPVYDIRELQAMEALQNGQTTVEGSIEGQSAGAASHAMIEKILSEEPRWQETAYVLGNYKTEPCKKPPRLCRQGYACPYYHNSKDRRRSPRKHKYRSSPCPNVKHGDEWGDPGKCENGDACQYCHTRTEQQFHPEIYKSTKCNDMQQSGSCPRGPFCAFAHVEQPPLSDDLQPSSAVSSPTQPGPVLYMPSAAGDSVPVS
Oligonucleotide | bound/input enrichment [ratio]
UUUGAUACCGUUAAGAGUGUAUUAGACAAAGAUCGGAAAGAAGAUGACACAAAUGAAUUUGUCAGUGCUGUGUGUUGGCGGGCACUAUCAGACGGGGAGUCCAAUGUGCUGAUUGCUGCU | 0.287
GUCUGGAGUCUCUCGGGACACGACCAGCUGAUUGUAGACACCGUGUUGAUAUCACUAGAAAUGAAGACCUUGUCAACCAAUAGAGGAACUGUCUGAACCAACUGGGUACUGAUGUCUCUG | 0.286
AACGCCAUGAAUUCCUUUGUUUAAUUUUUAAGCUCUUUGCCAAUAUUCCAUUUCUCUAGAAUGUUUAUCCUAAGCACUUGUUUGUCAGCCCUCUCAUACUAUGAACAUAUGGGUAGAGAG | 1.51
ACAAAUCUCAAUCCUGAUCUUAUCACACCACAUGGGCUUUUUAUCCUAUUUGGAGUCUAUGGUGAUGUACAUCGAGUGAAGAUUAUGUUUAAUAAGAAAGAAAAUGCCUUGGUUCAGAUG | 0.158
UCUCCCAUUCAAAUGUCAUCAUCCUUUUCUAUCUUGCAGGCAGGAUUGAUUUGAACAGGGAUUACUUCAACACACAUUUGUUUGUCUUUAUCUUUGUGUCAUUAUUGCAUGAUGUUGUUC | 0.139
GUUAUCUCCAACAAAGCCGCAGUAGCUGGGUUAGAUAAAGCGGAAAGAGCUGGUAUUCCCACUAGAGUAAUUAAUCAUAAACUGUAUAAAAAUCGUGUAGAAUUUGACAGUGCAAUUGAC | 109
AUCCAGUACUCGAAUCACAAAGAACUAAAGACAGAUAAUACAUUAAACCAACGUGCUCAGGCAGUUCUUCAAGCUGUGACAGCUGUCCAGACAGCAAAUACUCCUCUUAGUGGCACCACA | 0.287
UCUUCCUUUGCCUUUCCUCUUGAUAGUGUUUUCUGAUGAGCCAUCAUUGCCACUGCAUUUGAUUUAGUGUGUAAUGUGGUCUGUUAUCCAGCUGUUUUUCACAGUCUGUAGUGACUCUUA | 0.389
AAUCUCUGGGAACACUAUUAUAAAGAUGGACAAGCCAUUAUUUUUGUCAUUGAUAGUAGUGAUAAGUUAAGAAUGGUUGUGGCCAAAGAAGAGCUUGAUACCCUUCUGAAUCACCCAGAU | 0.156
CUACGUUUUUACACAGCCCCACCUGCUCCCCGGCUUGCCCUUUGCUUCGUAGACAUCCGUCGCUUUGGCCACUGGGAUCCUGGGGGUGAAUGGCAACCAGGCCGUGGACCCUGUGUCUUG | 0.0759
GAGUACAAUCUCUUUUCUAGGAAGAUAGAAGAGAUUUUGAAGCAAAAGAAUGUUUCAUAUGUCAGUACAGUUUCCACACCUAUCUUUUCAACACAAGAGAAGAUGAAACGGCUUUCCGAG | 0.116

Study 2
Target: Histone acetyltransferase KAT6A, winged helix 2, GST fusion (KAT6A, Homo sapiens, UniProt Q92794, residues 85-181)
Technique: protein binding microarray
Form: double-stranded DNA, one strand shown
Sample: in vitro
Concentration: not given
Setting: 8-mer, flanks averaged, mean of 2 arrays, mostly near background
Reference: not given
Direction: higher = stronger binding
Target sequence (chain): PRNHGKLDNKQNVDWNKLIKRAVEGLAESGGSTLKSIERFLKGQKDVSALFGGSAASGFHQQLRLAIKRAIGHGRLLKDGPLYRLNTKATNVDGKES
Oligonucleotide | E-score
GCCAACAC | 0.15
ACGACTAC | -0.3
ATACAACG | -0.106
AGCAATCA | 0.0999
GGGGCTGA | -0.0155
GAATCCTA | 0.00686
CCCCATGA | 0.046
AGTTGTGC | -0.00976
AGCCTTAT | -0.278
ACCACATG | -0.125
AACTCTGG | 0.0273
ATTGGCGG | 0.133
ACATCCAG | 0.0458
CCCCTGAC | 0.21
AATGTGGC | 0.0145
CGTCTTCC | -0.111
CGAGGTGC | 0.0243
ATCAGAAT | -0.00938
GACATCCA | 0.0389
GATGCTAC | -0.038
TGAGCACA | -0.0271
CTAATGAA | 0.226
ATCGTTCG | -0.122
GGGCCGAC | 0.078
CAATAATA | 0.0407

Study 3
Target: Interferon regulatory factor 5, full length, phosphomimetic (IRF5, Homo sapiens, UniProt Q13568-2, residues 1-514, K96S/S451D/S453D/S456D/S462D)
Technique: protein-binding microarray
Form: double-stranded DNA, one strand shown
Sample: in vitro
Concentration: 250 nM
Setting: 60-bp whole probe
Together with: salmon DNA 0.4 mg/ml
Reference: random background probes
Direction: higher = stronger binding
Constant ends, left off below: GCCTAGCAC … GTCTTGATTCGCTTGACGCTGCTG
Oligonucleotide | log fluorescence
TCAAATATTCATTTTATACTGTGCTAG | 1.09 z-score
TCATTTTTTTTTTTTACACTGTGCTAG | 1.1 z-score
TCAAGTTTCTATTTTCTACTGTGCTAG | 4.3 z-score
GGCGGACTGGGTTTCGGGACGTGCTAG | 2.02 z-score
GACGGTTTCGGGTTTCGGGTCGTGCTA | 8.64 z-score
TTAGGTATCCTTCACCTTTAGTGCTAG | 0.135 z-score
GCTGGTCTCTAACTCAAGATGTGCTAG | -0.348 z-score
GACGGTTTCGACTTTCGGGCCGTGCTA | 7.71 z-score
TCATGCTTTCTTTTTGCACTGTGCTAG | 1.64 z-score
GACGAACTGAGACTAGAGACGTGCTAG | -0.0655 z-score
GACGATATCAGTATCCAGACGTGCTAG | 1.18 z-score
GATGGTCTCCTTTTCCTGACGTGCTAG | 0.0192 z-score
GACGACTTCGGGTTTCGAGACGTGCTA | 1.45 z-score
TCATGTCTGATTATTTAACTGTGCTAG | 0.649 z-score
TTAGATATCAGTCGCGATTAGTGCTAG | 1.26 z-score
GACGCTTTCGGTCTCGGGACGTGCTAG | 10.2 z-score
GACAGACTGCTTCTCCTGACGTGCTAG | -0.278 z-score
TCACGTGTTTTTCTCCTACTGTGCTAG | 0.8 z-score
TCACCTCTGCTCCTCTTACTGTGCTAG | 0.223 z-score
TTAGGTTTAGGTTCCGGTTAGTGCTAG | 1.12 z-score
TTGTGTTTTCATTTTATGACGTGCTAG | 2.27 z-score
GACGGTTTCGGATTGGGGACGTGCTAG | 5.2 z-score
TTTGATATCAGTTTCGATTAGTGCTAG | 10.3 z-score
GACGGTAACCTTATCCTGACGTGCTAG | -0.275 z-score
GGCGGTATCGACACTGGGGACGTGCTA | 1.64 z-score

Study 4
Target: RNA binding protein fox-1 homolog 2, RRM domain, GST-SBP tag (RBFOX2, Homo sapiens, UniProt O43251-10, residues 100-194)
Technique: RNA Bind-n-Seq
Form: RNA
Sample: in vitro
Concentration: 365 nM
Setting: natural RNA segment, single round, ends assumed
Reference: no-protein control
Direction: higher = stronger binding
Constant ends, left off below: GGGAGUUCUACAGUCCGACGAUC … UGGAAUUCUCGGGUGCCAA
Target sequence (chain): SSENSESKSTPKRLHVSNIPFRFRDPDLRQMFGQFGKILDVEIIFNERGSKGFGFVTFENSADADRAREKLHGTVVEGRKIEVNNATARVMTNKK
Oligonucleotide | RBNS enrichment (R)
UCAAAGUGGAGUAACGUGUAUUUUGAAAUGAUUUUGUGUUCUAUAUAGAAUGUCCCAGUUAAGAUUUUACAGAAGCACCUGGAAUAUCUCAUUAAAAAUUUAAAAACUCU | 1.05
GGAGCAGUUGCCCUCAGGCCUGUGCCCAGCAUGCCCUCCCCUUUUUAUACGAAUGUUUUCUACCAGUGUGCUUGGGUUUGCCAUGAUGCGAGGCUGAGUUGCUGUAGCGU | 15
UAAGGCAUAAAUGCAGGUAAUUAUUCCCAGCUGACCUAAAGUCAAUAAAACAUUCUGUUUAAGUGUUUUUCUUACGUUUUUCUCAAUGAGUUAAUCAACAAGUAUUUAUU | 0.471
CCUGUAUCAGGUGGUUAACCAAGGAAUCCACAUCAACAGGUGGGGCCAUCUUUAAUGUGGGCACCAGAGACUCGGAGCGGUCCUUUUGCUUCAAAGACAGGAGUUCACUG | 0.32
CAUUGAGUUUAAUUCAGCAACAACAAAAAAUACAUAUAAAACUAGAAAGGGACUUUUUUUCCUUUCUUUUCAUAAUGAAGCAGAUCAACUUAAAGGAUAAUAAAAUUUUU | 0.379
CUGAGCCAUGUGUGCCCCUGCGGGAGGACCCAUUCAUGCCAGAAAGCUGGUAACUCCCUCCCAGCAUCCCUGCGGAAGGAGUCAGUUUCUGAGAGUGUGACUUUUCAAGG | 0.652
CCCUCACCCCACCACCAGGGUCCUGACUUCACAUUCUUCACAGAAGGGGACAAGACCUCCAGGAGGCCCUGUGGAGUCUCUGGUGAGGUGUGCGAUGGCAGAGCAGCAUC | 0.327
CGACAAAAUCUAUUCUAAUGUGGCUUUUUAUGGAGGGUGUAACUGUAAUGUAUUCAAAAUUGUCAGUGUGGUGGCAUCAAAUAUGUAGAGAUGGUCUUUCUGUGGAGAAU | 1.99
CCUUAACUGGUAUCAAACAGUGUCACUGAGAUAUUUUCAAAGAACACUGAAUUGUAUUUAAUCAGCGUGUAUUCCAUUUGCAUUGAAGCAUUAAAGAUUAUUUUCCUUAA | 0.505
GCUCACCAAUGCCACAUUUGUUCAUUCUGUUCAACCUGUUUUGACCUCCCAGGCAUCUGAACAGGAUGACAUCAUCUUAUUAUAUCUUACUUUACACAUACGUGUAUGUA | 0.667
UUUACUAGGCAAAUACACAUACUAUCUCACAUAGAUGAUUAUGAAACUGAAUGAAAACCUGUCAUGCGGGAUUAUUUUUGAAAAGCCUCCAUUUGUAUACAUUUGCCCAA | 0.889
GUUGUGGCCCUGGGGCCCAGCCCCAAACUGGGGGCUCUGUAUAUAGCUAUGAAGAAAACACAAAGUGUAUAAAUCUGAGUAUAUAUUUACAUGUCUUUUUAAAAGGGUCG | 0.407

Study 5
Target: Sal-like protein 4, full length isoform A (SALL4, Homo sapiens, UniProt Q9UJQ4, residues 1-1053)
Sequence of UniProt Q9UJQ4 (whole entry, looked up): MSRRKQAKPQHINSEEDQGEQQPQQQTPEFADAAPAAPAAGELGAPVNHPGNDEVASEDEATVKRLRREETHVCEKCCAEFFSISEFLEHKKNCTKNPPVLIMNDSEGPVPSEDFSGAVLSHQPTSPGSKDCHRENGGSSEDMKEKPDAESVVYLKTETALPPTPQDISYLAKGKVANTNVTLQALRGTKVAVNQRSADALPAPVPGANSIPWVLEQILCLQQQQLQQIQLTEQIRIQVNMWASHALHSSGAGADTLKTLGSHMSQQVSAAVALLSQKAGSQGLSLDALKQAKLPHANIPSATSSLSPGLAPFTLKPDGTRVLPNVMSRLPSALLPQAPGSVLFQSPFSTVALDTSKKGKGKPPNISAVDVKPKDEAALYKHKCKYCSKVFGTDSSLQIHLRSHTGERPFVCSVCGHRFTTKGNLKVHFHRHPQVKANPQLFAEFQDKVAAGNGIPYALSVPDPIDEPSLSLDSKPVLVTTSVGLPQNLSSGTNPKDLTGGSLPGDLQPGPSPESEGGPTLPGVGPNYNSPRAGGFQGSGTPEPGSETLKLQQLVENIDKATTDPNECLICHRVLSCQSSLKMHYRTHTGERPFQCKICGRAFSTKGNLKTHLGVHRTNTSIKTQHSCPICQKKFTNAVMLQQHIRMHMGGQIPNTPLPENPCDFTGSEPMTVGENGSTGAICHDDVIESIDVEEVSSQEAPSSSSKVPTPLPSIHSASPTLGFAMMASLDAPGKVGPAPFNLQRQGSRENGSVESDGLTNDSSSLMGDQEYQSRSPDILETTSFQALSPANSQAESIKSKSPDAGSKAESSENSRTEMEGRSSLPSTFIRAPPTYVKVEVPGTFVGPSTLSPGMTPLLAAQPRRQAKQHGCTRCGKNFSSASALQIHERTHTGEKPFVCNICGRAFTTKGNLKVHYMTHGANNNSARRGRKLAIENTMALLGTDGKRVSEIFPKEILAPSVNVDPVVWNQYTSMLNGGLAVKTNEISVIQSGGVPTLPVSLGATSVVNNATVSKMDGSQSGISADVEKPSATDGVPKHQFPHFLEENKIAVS
Technique: universal PBM
Form: double-stranded DNA, one strand shown
Sample: in vitro
Concentration: 600 nM
Setting: 8-mer, flanks averaged, mean of replicates
Direction: higher = stronger binding
Oligonucleotide | E-score
TGGTGACA | 0.024
GGGCAGTA | -0.239
CCCGACAG | -0.252
AATTCTGC | 0.07
AAGCGAGA | 0.0291
CGTATCAG | -0.0861
AGTGATGG | 0.00206
GGCTAAGA | -0.0977
TCAAACGA | 0.12
GGCCTAAA | -0.142
ATGTACTG | 0.133
AGACGAAA | 0.181
AATGAACC | 0.0721
ATGTCGAG | -0.0377
AGGGGTAT | -0.152
ACAGGAAC | 0.0152
ACACGTAA | 0.225
GATTAATC | 0.207
AAGGCCTT | -0.219
GATGATCA | 0.00128
AACTAGCT | 0.016
ATGGTAGA | 0.113
CCGTCGAC | -0.286
CCATCGGA | -0.269
ACTTGCGC | -0.1

Repeated from above (study 5):
Oligonucleotide | E-score
ATGTACTG | 0.133
AGACGAAA | 0.181
AATGAACC | 0.0721
ATGTCGAG | -0.0377
AGGGGTAT | -0.152
ACAGGAAC | 0.0152
ACACGTAA | 0.225
GATTAATC | 0.207
AAGGCCTT | -0.219
GATGATCA | 0.00128
AACTAGCT | 0.016
ATGGTAGA | 0.113
